# Assay results collected from several papers.
# Lines come from different studies, so protocols differ. Several values in a cell are separate wells, animals, samples, runs or records. Numbers after ± are the reported error.
Compound,test,test system,conditions,scale,endpoint,result
CC[C@H](C)[C@@H]1NC(=O)[C@H](Cc2ccc(O)cc2)NC(=O)CCCSC[C@@H](C(=O)N(CC(=O)N[C@@H](CC(C)C)C(=O)NCC(N)=O)Cc2ccc(F)cc2)NC(=O)[C@H](CC(N)=O)NC(=O)[C@H](CCC(N)=O)NC1=O,,"healthy human, plasma","intranasal, 400 µg every 3 h, after last dose",,AUC(0-t),0.135 ng·h/mL
C=CC(=O)Nc1cccc(Cn2ncc3cnc(Nc4cnn(CCOC)c4)nc32)c1,,"dog, Beagle, both sexes, whole blood","5 µM, 30 min",,remaining compound,80.5%
C=CC(=O)Nc1cc(Nc2nccc(-c3c[nH]c4ccccc34)n2)c(OC)cc1N(C)CCN(C)C,storage stability,human plasma,"5 h, on ice, high QC level",,recovery,91.2%
COc1cccc(OC)c1-c1cc(C(=O)NC2(C(=O)O)C3CC4CC(C3)CC2C4)nn1-c1ccc(C(=O)N(C)CCCN(C)C(=O)[C@H](CCCCNC(=O)[C@H](CC(C)C)NC(=O)C2OC2C(=O)O)NC(=O)CN2CCN(CC(=O)[O-])CCN(CC(=O)[O-])CCN(CC(=O)[O-])CC2)cc1C(C)C.[177Lu+3] (mixture of isomers),,"mouse, HT-29 xenograft","24 h post injection, biodistribution",baseline: tumour over brain uptake,tumour-to-brain ratio,47.4
C=C(NC(=O)c1csc(-c2nc3c(cc2O)-c2nc(cs2)C(=O)NC(C(C)O)C(=O)NC(=C(C)OC)c2nc(cs2)C(=O)NC2c4nc(cs4)C(=O)NC(COC(=O)c4c5c6c(cccc6n4O)COC(=O)C(OC4CC(C)(O)C(N(C)C)C(C)O4)C2OC5)c2nc-3cs2)n1)C(N)=O (centres unmarked),,"ICR mice, Streptococcus pneumoniae ATCC 49169 infected, immunocompromised, blood","intravenous, 2 mg/kg/day twice daily",,half-life,2.68 h
CC[C@H](C)[C@H](NC(=O)CNC(=O)[C@H](C)NC(=O)[C@H](CC(=O)O)NC(=O)[C@H](CO)NC(=O)[C@H](C)NC(=O)[C@H](CC(C)C)NC(=O)[C@H](CCCCN)NC(=O)[C@H](CCCCN)NC(=O)[C@H](CCSC)NC(=O)[C@H](CC(N)=O)NC(=O)[C@H](Cc1ccccc1)NC(=O)[C@H](CC(=O)O)NC(=O)[C@@H](N)CCSC)C(=O)N[C@@H](Cc1c[nH]c2ccccc12)C(=O)N[C@@H](Cc1ccccc1)C(=O)N[C@H](C(=O)N[C@@H](CCCNC(=N)N)C(=O)N[C@@H](C)C(=O)N[C@H](C(=O)N[C@@H](CCC(N)=O)C(=O)N[C@@H](Cc1ccccc1)C(=O)N[C@H](C(=O)N[C@@H](CCC(=O)O)C(=O)N[C@@H](CCC(=O)O)C(=O)N[C@@H](CCCCN)C(=O)N[C@@H](Cc1ccccc1)C(=O)NCC(=O)N[C@@H](CCC(N)=O)C(=O)N[C@@H](C)C(N)=O)[C@@H](C)O)C(C)C)[C@@H](C)O,circular dichroism,~60% TFE,,,fractional helicity,32.4%
CCCCN1C(=O)c2cccc3c(NCCCCN4CCOCC4)ccc(c23)C1=O,,ethyl acetate,,,molar extinction coefficient,8600 M⁻¹ cm⁻¹
Cc1nc(N)nc2c1C(=O)N[C@@H](c1ccc(F)cc1-c1cccc(O[11CH3])n1)C2,ex vivo biodistribution,"healthy mice, kidneys","60 min post-injection, baseline, vehicle pre-treatment",,tracer uptake,3.4 ± 0.5 %ID
Oc1ccccc1/C=N/Nc1nnc(N/N=C/c2ccccc2O)c2ccccc12,haemolysis,human,"1 mM, 45 min",,haemolysis,6.5%
O=C1NC2(CC2)COc2ncc(F)cc2[C@H]2COCCN2c2ccn3ncc1c3n2,bone marrow micronucleus test,"NIH mice, female","oral, 60 mg/kg/day, 3 days",,PCE/(PCE+NCE) ratio,0.544 ± 0.05
CCCC[C@H](OC(C)=O)c1ccccc1C(=O)O,,"Sprague-Dawley rats, both sexes, whole blood","intravenous, 5 mg/kg single dose",,AUC(0-inf),4160 ± 794 ng·h/mL
Cc1ccc(OCC(=O)N(Cc2cccs2)c2ccn[nH]2)cc1,,dog plasma,"750 ng/mL, 1 h, 37 °C, unit not given",baseline: time zero,remaining compound,102
COCC1CN(C2CCN(c3cc(OC)c(Nc4ncc(Br)c(Nc5ccc6c(c5P(C)(C)=O)OCCO6)n4)cc3C)CC2)C1,first-in-human trial,human,"oral, 60 mg once daily",treatment-related leading to dose reduction,adverse events,0%
C=C[C@]1(C)C[C@@H](OC(=O)CSc2ccc(NC(=O)c3ccco3)cc2)[C@]2(C)[C@H](C)CC[C@]3(CCC(=O)[C@H]32)[C@@H](C)[C@@H]1O,,"Mycoplasma gallisepticum-infected chickens, plasma","intramuscular, 80 mg/kg, 0.083 h",,plasma concentration,5210 ng/mL and 4870 ng/mL and 6540 ng/mL and 5060 ng/mL and 5950 ng/mL and 11900 ng/mL and 7290 ng/mL
CC(C)[C@H](NC(=O)[C@H](Cc1c[nH]c2ccccc12)NC(=O)[C@H](CCCNC(=N)N)NC(=O)[C@H](CCCNC(=N)N)NC(=O)[C@@H](NC(=O)[C@@H](NC(=O)[C@H](CCCNC(=N)N)NC(=O)[C@@H](NC(=O)[C@@H](NC(=O)[C@H](CCCNC(=N)N)NC(=O)[C@H](CCCNC(=N)N)NC(=O)[C@@H](NC(=O)[C@H](Cc1c[nH]c2ccccc12)NC(=O)[C@H](CCCNC(=N)N)NC(=O)[C@H](CCCNC(=N)N)NC(=O)[C@@H](NC(=O)[C@H](CCCNC(=N)N)NC(=O)[C@H](CCCNC(=N)N)NC(=O)[C@@H](NC(=O)[C@H](Cc1c[nH]c2ccccc12)NC(=O)[C@H](CCCNC(=N)N)NC(=O)[C@@H](N)CCCNC(=N)N)C(C)C)C(C)C)C(C)C)C(C)C)C(C)C)C(C)C)C(C)C)C(=O)N[C@@H](CCCNC(=N)N)C(=O)N[C@@H](CCCNC(=N)N)C(=O)O,,"CD1 mouse, plasma","intravenous, 15 mg/kg, 16 h, [14C]-labelled compound",,total CO2,23.7 mEq/L
O=C(Nc1cnccc1-c1ccc([18F])cc1)c1ccnc(NC(=O)C2CC2)c1,ex vivo gamma counting,"GSK-3β transgenic mice, late-stage, bone","intravenous, 120 min, mean, P-gp inhibitor pretreatment, together with: tariquidar 15 mg/kg iv",,SUV,0.72
C=Cc1ccccc1[B-]12OC(=O)C(c3ccccc3)=N[N+]1=C(CC)c1ccc(N(CC)CC)cc1O2 (centres unmarked),,toluene,,,molar absorption coefficient,54000 M⁻¹ cm⁻¹
CC(C)C[C@H](NC(=O)[C@H](CCCN)NC(=O)CNC(=O)[C@@H](NC(=O)[C@H](C)NC(=O)[C@@H]1CSCSC[C@H](NC(=O)CC[C@H](N)C(=O)O)C(=O)N[C@@H](CC(N)=O)C(=O)N[C@@H]([C@@H](C)O)C(=O)N[C@@H](C)C(=O)N[C@@H]([C@@H](C)O)C(=O)N1)[C@@H](C)O)C(=O)N[C@@H](C)C(=O)N[C@@H](CCC(=O)O)C(=O)N[C@@](C)(Cc1ccccc1)C(=O)N[C@@H](CC(C)C)C(=O)N[C@H](C(=O)N[C@@H](CCCNC(=N)N)C(=O)N[C@@H](CO)C(=O)N[C@@H](CO)C(=O)N[C@@H](CC(N)=O)C(=O)N(C)[C@@H](CC(N)=O)C(=O)N[C@@H](Cc1ccccc1)C(=O)NCC(=O)N1CCC[C@H]1C(=O)N[C@@H](CCCCNC(=O)CC[C@H](NC(=O)CC[C@H](NC(=O)CCCCCCCCCCCCCCCCCCC(=O)O)C(=O)O)C(=O)O)C(=O)N[C@@H](CC(C)C)C(=O)N1CCC[C@H]1C(=O)N1CCC[C@H]1C(=O)N[C@H](C(=O)N[C@@H](CCC(=O)O)C(=O)N[C@H](C(=O)NCC(=O)N[C@@H](CO)C(=O)N[C@@H](CC(N)=O)C(=O)N[C@H](C(=O)N[C@@H](Cc1ccc(O)cc1)C(N)=O)[C@@H](C)O)C(C)C)[C@@H](C)O)C(C)C,,"healthy human, plasma","subcutaneous, 0.4 mg single dose, geometric LS mean",,AUC(0-tlast),21400 ng·h/mL
CCCCN1C(=O)c2cccc3c(NCCCN4CCOCC4)ccc(c23)C1=O,,CHCl3,,,molar extinction coefficient,6000 M⁻¹ cm⁻¹
C[C@@]1(c2nc(-c3ccc(F)c4cn[nH]c34)no2)CCCN(C(=O)c2ccc(F)nc2)C1,,mouse,"intraperitoneal, 20 mg/kg",direction not given,conditioned place preference score,60.7 and 33.1 and -173 and 2.48 and 23.7
CCCCN1C(=O)c2cccc3c(NCCCCCN4CCOCC4)ccc(c23)C1=O,,toluene,,,molar extinction coefficient,4940 M⁻¹ cm⁻¹
Cc1cc(-c2ccc(C(=O)[C@@H]3CCCC[C@H]3C(=O)Nc3cnn4c3C(=O)NCC4)cc2)[nH]n1,,"human, urine","oral, 200 mg, 96-120 h",baseline: dose,radioactivity recovery per interval,0.01% and 0.02% and 0.03% and 0.04%
CCC(=O)N(C)c1ccc(Cl)c(Cl)c1,,female C57BL/6 mice,"subcutaneous, 2 mg/kg, 0.083 h",,plasma concentration,370 ng/mL
CCC(C(=O)Nc1ccc(C(N)=O)c(F)c1)n1cc(OC)c(-c2cc(Cl)ccc2-n2cc(C(F)(F)F)nn2)cc1=O (centres unmarked),,healthy male humans,"50 mg, together with: antacid",,drug-related adverse events,0%
C[C@]12COc3ccc(Oc4ccccc4)cc3[C@H]1CCN2,lipid PAMPA,artificial lipid membrane,"10 µM, 16 h",,recovery,2.7%
[123I]c1ccc2nc(-c3ccc(-n4ccnn4)nc3)cn2c1,,"Wistar rat, male, adrenals","intravenous, 4 MBq, 3 h",,tissue uptake,0.687 ± 0.346 %ID/g
CC(=O)N([O-])CCCCCNC(=O)CCC(=O)N([O-])CCCCCNC(=O)CCC(=O)N([O-])CCCCCN.[89Zr+4],,human plasma,"7 d, 37 °C",,intact complex,99 ± 1.2%
CCc1occc(=O)c1[O-].[Cl-].[W+4].c1cc[cH-]c1.c1cc[cH-]c1,cyclic voltammetry,,,baseline: Ag/AgCl,oxidation potential,575 mV
O=C1CCC(N2Cc3cc(C(=O)O)c(F)cc3C2=O)C(=O)N1 (centres unmarked),,"cynomolgus monkey, male","oral, 0.3 mg/kg parent drug, 2 h",,plasma concentration,7.1 ± 6.1 ng/mL

# For quick reference, copied from above:
Compound,test,test system,conditions,scale,endpoint,result
C=C(NC(=O)c1csc(-c2nc3c(cc2O)-c2nc(cs2)C(=O)NC(C(C)O)C(=O)NC(=C(C)OC)c2nc(cs2)C(=O)NC2c4nc(cs4)C(=O)NC(COC(=O)c4c5c6c(cccc6n4O)COC(=O)C(OC4CC(C)(O)C(N(C)C)C(C)O4)C2OC5)c2nc-3cs2)n1)C(N)=O (centres unmarked),,"ICR mice, Streptococcus pneumoniae ATCC 49169 infected, immunocompromised, blood","intravenous, 2 mg/kg/day twice daily",,half-life,2.68 h
CC[C@H](C)[C@H](NC(=O)CNC(=O)[C@H](C)NC(=O)[C@H](CC(=O)O)NC(=O)[C@H](CO)NC(=O)[C@H](C)NC(=O)[C@H](CC(C)C)NC(=O)[C@H](CCCCN)NC(=O)[C@H](CCCCN)NC(=O)[C@H](CCSC)NC(=O)[C@H](CC(N)=O)NC(=O)[C@H](Cc1ccccc1)NC(=O)[C@H](CC(=O)O)NC(=O)[C@@H](N)CCSC)C(=O)N[C@@H](Cc1c[nH]c2ccccc12)C(=O)N[C@@H](Cc1ccccc1)C(=O)N[C@H](C(=O)N[C@@H](CCCNC(=N)N)C(=O)N[C@@H](C)C(=O)N[C@H](C(=O)N[C@@H](CCC(N)=O)C(=O)N[C@@H](Cc1ccccc1)C(=O)N[C@H](C(=O)N[C@@H](CCC(=O)O)C(=O)N[C@@H](CCC(=O)O)C(=O)N[C@@H](CCCCN)C(=O)N[C@@H](Cc1ccccc1)C(=O)NCC(=O)N[C@@H](CCC(N)=O)C(=O)N[C@@H](C)C(N)=O)[C@@H](C)O)C(C)C)[C@@H](C)O,circular dichroism,~60% TFE,,,fractional helicity,32.4%
CC(=O)N([O-])CCCCCNC(=O)CCC(=O)N([O-])CCCCCNC(=O)CCC(=O)N([O-])CCCCCN.[89Zr+4],,human plasma,"7 d, 37 °C",,intact complex,99 ± 1.2%
Cc1cc(-c2ccc(C(=O)[C@@H]3CCCC[C@H]3C(=O)Nc3cnn4c3C(=O)NCC4)cc2)[nH]n1,,"human, urine","oral, 200 mg, 96-120 h",baseline: dose,radioactivity recovery per interval,0.01% and 0.02% and 0.03% and 0.04%
